Experimental data of several laboratories.
Lines come from different studies, so protocols differ. ± gives the spread as reported.

| Molecule | cell line | assay | system | conditions | how to read | measurement | result |
| --- | --- | --- | --- | --- | --- | --- | --- |
| CCN(CC)N=O | HepaRG, 3D spheroids | flow cytometry micronucleus | – | highest tested concentration, 24 h, plus 6 days hEGF | baseline: vehicle | relative survival | 84.1% |
| CC(C)C[C@H](NC(=O)[C@H](C)NC(=O)CNC(=O)[C@@H](NC(=O)[C@@H](NC(=O)[C@H](CCCCN)NC(=O)[C@H](CCCCN)NC(=O)[C@@H](NC(=O)[C@H](CC(C)C)NC(=O)[C@H](CCCCN)NC(=O)[C@H](CC(C)C)NC(=O)[C@H](CC(C)C)NC(=O)[C@@H](N)CCCCN)C(C)C)C(C)C)C(C)C)C(=O)NCC(N)=O | human erythrocytes | – | – | 1 h, 37 °C, hemolysis ≤5% | – | minimal hemolytic concentration | > 250 µM |
| pneumocandin K | human erythrocytes | – | – | 56.2 µg/mL, 1 h, 37 °C | baseline: Tween 20 | hemolysis | > 40% |
| C[C@H](NP(=O)(OCCOCn1cnc2c(=O)[nH]c(N)nc21)Oc1cccc2ccccc12)C(=O)OC(C)(C)C (stereo partly drawn) | HEL | altered cell morphology | – | – | – | minimal cytotoxic concentration | > 50 µM |
| CC(C)C[C@H](NC(=O)[C@H](C)NC(=O)CNC(=O)[C@@H](NC(=O)[C@H](CC(C)C)NC(=O)[C@H](CCCCN)NC(=O)[C@H](CCCCN)NC(=O)[C@H](CC(C)C)NC(=O)[C@H](CC(C)C)NC(=O)[C@H](CCCCN)NC(=O)[C@H](CC(C)C)NC(=O)[C@H](CC(C)C)NC(=O)[C@@H](N)CCCCN)C(C)C)C(=O)NCC(N)=O | human erythrocytes | – | – | 1 h, 37 °C, hemolysis ≤5% | – | minimal hemolytic concentration | 32 µM |
| Cc1cnc2ccc3c(nc(N)n3C)c2n1 | rat primary midbrain neurons | selective dopaminergic neurotoxicity, item: TH+ over MAP2+ neurons | – | 24 h | – | threshold concentration | 1 µM |
| O=C(NCc1c(F)cccc1Cl)c1cn(Cc2ccc(F)cc2)cc(O)c1=O | HFF | trypan blue exclusion | – | 10 or 50 µM | – | viability | > 90% |
| COC(=O)[C@H](C)NP(=O)(OCCOCn1cnc2c(=O)[nH]c(N)nc21)Oc1cccc2ccccc12 (stereo partly drawn) | HEL | altered cell morphology | – | – | – | minimal cytotoxic concentration | > 50 µM |
| CN[C@H](C(=O)N[C@H](C(=O)N(C)[C@H](c1noc(=O)[nH]1)C(C)C)C(C)C)C(C)(C)c1ccccc1 | HT-29 | cell growth or viability, MTT | – | – | – | IC50 | > 10000 nM |
| CC(C)C[C@H](NC(=O)CN)C(=O)N[C@@H](Cc1ccccc1)C(=O)N[C@@H](CCCCN)C(=O)N[C@@H](CC(C)C)C(=O)N[C@@H](CC(C)C)C(=O)N[C@@H](CCCCN)C(=O)N[C@@H](CCCCN)C(=O)N[C@@H](CC(C)C)C(=O)N[C@@H](CC(C)C)C(=O)N[C@@H](CCCCN)C(=O)N[C@@H](CC(C)C)C(=O)N[C@@H](CC(C)C)C(=O)N[C@@H](CCCCN)C(N)=O | human erythrocytes | – | – | 1 h, 37 °C, hemolysis ≤5% | – | minimal hemolytic concentration | 125 µM |
| Nc1nc2c(ncn2COCCOP(=O)(NCC(=O)OCc2ccccc2)Oc2ccccc2)c(=O)[nH]1 (stereo not drawn) | HEL | altered cell morphology | – | – | – | minimal cytotoxic concentration | > 100 µM |
| Cn1c(N)nc2c3cccnc3ccc21 | rat primary midbrain neurons | selective dopaminergic neurotoxicity, item: TH+ over MAP2+ neurons | – | 24 h | – | threshold concentration | 5 µM |
| O=NN1CCN(C2CCCC2)CC1 | HepaRG, 3D spheroids | – | – | highest tested concentration, 24 h, plus 5 days, with: hEGF 100 ng/mL | baseline: vehicle | γH2A.X fold increase | 1.5 to 1.8 fold |
| CC[C@@]12SS[C@]3(C(=O)N1C)[C@@H](O)[C@]1(C45c6ccccc6N[C@@H]4N4C(=O)[C@@]6(CC)SS[C@@]4(C(=O)N6C)[C@H]5O)c4ccccc4N[C@@H]1N3C2=O (stereo partly drawn) | MCF7 | cell growth or viability, SRB | – | – | – | IC50 | 490 nM |
| CC[C@H](C)[C@H](N)C(=O)N[C@@H](CC(C)C)C(=O)N1CCC[C@H]1C(=O)N[C@@H](Cc1c[nH]c2ccccc12)C(=O)N[C@@H](CCCCN)C(=O)N[C@@H](Cc1c[nH]c2ccccc12)C(=O)N1CCC[C@H]1C(=O)N[C@@H](Cc1c[nH]c2ccccc12)C(=O)N[C@@H](Cc1c[nH]c2ccccc12)C(=O)N1CCC[C@H]1C(=O)N[C@@H](Cc1c[nH]c2ccccc12)C(=O)N[C@@H](CCCN=C(N)N)C(=O)N[C@@H](CCCN=C(N)N)C(N)=O | human erythrocytes | – | – | 15 µM, 1 h, pH 7.4 | baseline: water lysis | haemolysis | 23 ± 6% |
| COc1cc(CN2CC3(CCN(S(=O)(=O)c4cn(C)cn4)CC3)c3c(n(C)c4cc(OC)ccc34)[C@H]2CO)cc(OC)c1 | HEp-2, uninfected | – | – | original sample | – | CC50 | > 100 µM |
| CN1C(=O)[C@]23SS[C@@]1(C)C(=O)N2[C@H]1Nc2ccccc2[C@@]1([C@@]12c4ccccc4N[C@@H]1N1C(=O)[C@@]4(C)SS[C@]1(C(=O)N4C)[C@H]2O)[C@@H]3O | NCI-H460 | cell growth or viability, SRB | – | – | – | IC50 | 200 nM |
| C[C@H](NP(=O)(OCCOCn1cnc2c(=O)[nH]c(N)nc21)Oc1ccccc1)C(=O)OCc1ccccc1 (stereo partly drawn) | HEL | altered cell morphology | – | – | – | minimal cytotoxic concentration | > 50 µM |

| Molecule | cell line | assay | system | conditions | how to read | measurement | result |
| --- | --- | --- | --- | --- | --- | --- | --- |
| CC(O)[C@@]12SS[C@]3(C(=O)N1C)[C@@H](O)[C@]1([C@@]45c6ccccc6N[C@@H]4N4C(=O)[C@]6(C)SS[C@]4(C(=O)N6C)[C@H]5O)c4ccccc4N[C@@H]1N3C2=O (stereo partly drawn) | MCF7 | cell growth or viability, SRB | – | – | – | IC50 | 580 nM |
| C#CC[C@H](NCc1ccccc1)C(=O)N[C@@H](Cc1c[nH]c2ccccc12)C(=O)NCc1ccc(-c2ccccc2)cc1 | Vero | cell morphology, microscopy | – | 5 (unit not given) | – | minimum cytotoxic concentration | ≥ 100 µM |
| CC(C)Nc1nc(Cl)nc(NC(C)C)n1 | HEK293 | neutral red uptake | – | 24 h | – | LD50 | 2.51 µg/mL |
| C#CC[C@H](NCc1ccc(-c2ccccc2)cc1)C(=O)N[C@@H](Cc1c[nH]c2ccccc12)C(=O)NC(C)(C)C | Vero | cell morphology, microscopy | – | 5 (unit not given) | – | minimum cytotoxic concentration | 20 µM |
| COc1cccc2c1C(=O)c1c(O)c3c(c(O)c1C2=O)C[C@@](O)(C(=O)CO)C[C@@H]3O[C@H]1C[C@H](N)[C@H](O)[C@H](C)O1 | MCF7/ADR | flow cytometry | – | 10 µg/mL equivalent, 4 h loading, 2 h efflux, 37 °C | – | drug efflux | 58.3% |
| CC(=O)NC(C)(C)C(=O)N1CCC[C@H]1C(=O)NC(C)(C)C(=O)N[C@@H](C)C(=O)NC(C)(C)C(=O)N[C@@H](C)C(=O)N[C@@H](CCC(N)=O)C(=O)NC(C)(C)C(=O)N[C@H](C(=O)NC(C)(C)C(=O)NCC(=O)N[C@@H](CC(C)C)C(=O)NC(C)(C)C(=O)N1CCC[C@H]1C(=O)N[C@H](C(=O)NC(C)(C)C(=O)NC(C)(C)C(=O)N[C@@H](CCC(=O)O)C(=O)N[C@@H](CCC(N)=O)C(=O)N[C@H](CO)Cc1ccccc1)C(C)C)C(C)C | rat erythrocytes | – | – | concentration not given, 30 min, pH 7.4, 37 °C, with: Escherichia coli K-235 LPS, 1:5 w/w | – | hemolysis | no inhibition |
| CN(C)N=O | HepaRG 2D | micronucleus formation, flow cytometry | – | – | – | lowest effective concentration | 7500 µM |
| CCCCOc1cc(C(=O)NCCN(CC)CC)c2ccccc2n1 | rat DRG neurons | ion current, inhibitor | – | 20 and 50 µM, overnight, with: veratridine 30 µM | – | sodium current | inhibited |
| RRRRRRRR | HEI-OC1 | MTT | peptide | 24 h, rhodamine-conjugated peptide | – | maximum non-toxic concentration | 0.025 mg/mL |
| CN1C(=O)[C@@]23C[C@]4([C@@]56c7ccccc7N[C@@H]5N5C(=O)[C@]7(C)SS[C@]5(C(=O)N7C)[C@H]6O)c5ccccc5N[C@@H]4N2C(=O)[C@]1(C)SS3 | NCI-H460 | cell growth or viability, SRB | – | – | – | IC50 | 10 nM |
| COC(=O)[C@H](NP(=O)(OCCOCn1cnc2c(=O)[nH]c(N)nc21)Oc1cccc2ccccc12)C(C)C (stereo partly drawn) | HEL | altered cell morphology | – | – | – | minimal cytotoxic concentration | > 100 µM |
| CC[C@H](C)[C@H](NC(=O)[C@H](CCCCN)NC(=O)[C@H](CO)NC(=O)CNC(=O)[C@H](CC(C)C)NC(=O)[C@@H](N)Cc1c[nH]c2ccccc12)C(=O)N[C@@H](CCCCN)C(=O)N[C@@H](C)C(=O)N[C@@H](C)C(=O)N[C@@H](CCCCN)C(=O)N[C@@H](CCSC)C(=O)N[C@@H](CCCCN)C(=O)N[C@H](C(=O)NCC(=O)N[C@@H](CCSC)C(=O)N[C@@H](Cc1c[nH]c2ccccc12)C(=O)NCC(=O)N[C@@H](C)C(=O)N[C@H](C(=O)NCC(=O)N[C@@H](CC(C)C)C(=O)N[C@@H](CCCNC(=N)N)C(=O)N[C@@H](Cc1c[nH]cn1)C(=O)N[C@@H](CC(N)=O)C(=O)O)C(C)C)C(C)C | rat erythrocytes | – | – | 200 µM, 1 h, 37 °C | – | hemolysis | < 5% |
| CN(CCCC(=O)O)N=O | HepaRG, 3D spheroids | – | – | highest tested concentration, 24 h, plus 5 days, with: hEGF 100 ng/mL | baseline: vehicle | γH2A.X fold increase | 1.5 to 1.8 fold |
| C=C(C[C@H](N)C(=O)O)C(=O)Nc1ccccc1 | SK-BR-3 cells | cytotoxicity | – | 24 h | baseline: vehicle | lowest significantly active concentration | 100 µM |
| CN(N=O)c1ccccc1 | HepaRG 2D | cell viability | – | concentration not given, 24 h | baseline: vehicle | ATP level | 74.8% |
| C=C(C[C@H](N)C(=O)O)C(=O)NCc1ccc(F)cc1 | MCF7 | – | – | 24 h | baseline: vehicle | concentration increasing cytotoxicity | 32 µM |
| CCN(N=O)C(C)C | HepaRG, 3D spheroids | – | – | concentration not given, 24 h, highest tested concentration, hEGF 6 days | baseline: vehicle | relative survival | 89.9% |
| Cc1[nH]ccc2c1[nH]c1cc(=O)ccc12 | H4 cells | nuclear area and membrane integrity, high content imaging | – | 72 h | – | lowest cytotoxic concentration | > 10 µM |

Some of these lines once more:
| Molecule | cell line | assay | system | conditions | how to read | measurement | result |
| --- | --- | --- | --- | --- | --- | --- | --- |
| COC(=O)[C@H](NP(=O)(OCCOCn1cnc2c(=O)[nH]c(N)nc21)Oc1cccc2ccccc12)C(C)C (stereo partly drawn) | HEL | altered cell morphology | – | – | – | minimal cytotoxic concentration | > 100 µM |
| CC[C@H](C)[C@H](NC(=O)[C@H](CCCCN)NC(=O)[C@H](CO)NC(=O)CNC(=O)[C@H](CC(C)C)NC(=O)[C@@H](N)Cc1c[nH]c2ccccc12)C(=O)N[C@@H](CCCCN)C(=O)N[C@@H](C)C(=O)N[C@@H](C)C(=O)N[C@@H](CCCCN)C(=O)N[C@@H](CCSC)C(=O)N[C@@H](CCCCN)C(=O)N[C@H](C(=O)NCC(=O)N[C@@H](CCSC)C(=O)N[C@@H](Cc1c[nH]c2ccccc12)C(=O)NCC(=O)N[C@@H](C)C(=O)N[C@H](C(=O)NCC(=O)N[C@@H](CC(C)C)C(=O)N[C@@H](CCCNC(=N)N)C(=O)N[C@@H](Cc1c[nH]cn1)C(=O)N[C@@H](CC(N)=O)C(=O)O)C(C)C)C(C)C | rat erythrocytes | – | – | 200 µM, 1 h, 37 °C | – | hemolysis | < 5% |
| CN(CCCC(=O)O)N=O | HepaRG, 3D spheroids | – | – | highest tested concentration, 24 h, plus 5 days, with: hEGF 100 ng/mL | baseline: vehicle | γH2A.X fold increase | 1.5 to 1.8 fold |
| C=C(C[C@H](N)C(=O)O)C(=O)Nc1ccccc1 | SK-BR-3 cells | cytotoxicity | – | 24 h | baseline: vehicle | lowest significantly active concentration | 100 µM |
| CN(N=O)c1ccccc1 | HepaRG 2D | cell viability | – | concentration not given, 24 h | baseline: vehicle | ATP level | 74.8% |
| C=C(C[C@H](N)C(=O)O)C(=O)NCc1ccc(F)cc1 | MCF7 | – | – | 24 h | baseline: vehicle | concentration increasing cytotoxicity | 32 µM |
